Measured values collected from several papers.
Compare with care: the assays were run in different laboratories.
Cell line: CAKI-1

SMILES | test | conditions | how to read | endpoint | result
O=c1ccn(Cc2cn(-c3cc4ccccc4oc3=O)nn2)c(=O)[nH]1 | NCI60 single-dose screen | 10 µM | – | growth percentage | 102%
CCn1cc(-c2cc(Cn3ccoc3=N)cc3c2CCN([C@@H](C)c2cc(OC)ccn2)C3=O)c(C(F)(F)F)n1 | cell growth, inhibitor | 120 h | – | EC50 | 7.62 nM
CCCN1CCN(c2ccc3[nH]c(-c4ccc5[nH]c(-c6cc(OC)c(OC)c(OC)c6)nc5c4)nc3c2)CC1 | SRB | 10 µM, 48 h | – | growth percent | 105%
Cc1cc(=O)[nH]c(=O)n1Cc1cn(-c2c3ccccc3nc3ccccc23)nn1 | NCI60 single-dose screen | 10 µM | – | growth percentage | 91%
CCCCN1CCN(c2ccc3[nH]c(-c4ccc5[nH]c(-c6ccc(OCC)cc6)nc5c4)nc3c2)CC1 | SRB | 10 µM, 48 h | – | growth percent | 51.2%
O=C1NC(=NCc2cccs2)S/C1=C\c1ccc2ncccc2c1 | MTS | NCI60 panel | – | IC50 | > 10000 nM
COc1cnc2cccc(N3CCc4c(cc(Cn5ccnc5C)cc4-c4cn(C)nc4C(F)(F)F)C3=O)c2c1 | cell growth, inhibitor | 120 h | – | EC50 | 40.2 nM
Cc1cc(-c2ccccc2)n(-c2nc(-c3ccc(Cl)cc3)c3c(NC(=O)c4ccccc4)nnc-3[nH]2)n1 | SRB | 10 µM, NCI60 single-dose screen | reference: untreated | cell growth | 97.7%
Cc1cc(C)n(C(=S)[S][Au][PH](CCCCCC[PH]([Au][S]C(=S)n2nc(C)cc2C)(c2ccccc2)c2ccccc2)(c2ccccc2)c2ccccc2)n1 | cell growth, NCI-60 screen | renal cancer | – | log10 TGI | > -4
Cc1n[nH]c2nc(-c3ccc(Cl)cc3)c3c(NC(=O)c4ccccc4)nnc-3n12 | SRB | 10 µM, NCI60 single-dose screen | reference: untreated | cell growth | 89.1%
COc1ccc(OC)c(-c2nc3ccc(-c4nc5ccc(N6CCN(C)CC6)cc5[nH]4)cc3[nH]2)c1 | SRB | 10 µM, 48 h | – | growth percent | 106%
O=C(Nc1nnc2[nH]c(=S)[nH]c(-c3ccc(Cl)cc3)c1-2)c1ccccc1 | SRB | 10 µM, NCI60 single-dose screen | reference: untreated | cell growth | 91%
Cn1cncc1C1=CN(c2ncnc3[nH]cnc23)CCS1 | – | renal cancer | – | TGI | 64600 nM
CSc1nc(-c2ccc(Cl)cc2)c2c(NC(=O)c3ccccc3)nnc-2[nH]1 | SRB | 10 µM, NCI60 single-dose screen | reference: untreated | cell growth | 73.2%
CCCCN1CCN(c2ccc3nc(-c4ccc5nc(-c6cc(OC)ccc6OC)[nH]c5c4)[nH]c3c2)CC1 | SRB | 10 µM, 48 h | – | growth percent | 106%
Cc1cc(=O)[nH]n1-c1nc(-c2ccc(Cl)cc2)c2c(NC(=O)c3ccccc3)nnc-2[nH]1 | SRB | 10 µM, NCI60 single-dose screen | reference: untreated | cell growth | 91%
CN1CCN(c2ccc3[nH]c(-c4ccc5[nH]c(-c6ccc(C(F)(F)F)cc6)nc5c4)nc3c2)CC1 | SRB | 10 µM, 48 h | – | growth percent | 43%
Cc1cc(C)n(-c2nc(-c3ccc(Cl)cc3)c3c(NC(=O)c4ccccc4)nnc-3[nH]2)n1 | SRB | 10 µM, NCI60 single-dose screen | reference: untreated | cell growth | 73.9%
O=c1ccn(Cc2cn(-c3c4ccccc4nc4ccccc34)nn2)c(=O)[nH]1 | NCI60 single-dose screen | 10 µM | – | growth percentage | 96.8%
